# Assay results of several laboratories.
# Numbered parts are unrelated; each lists some results of a single study. Changes are numbered by the printed parent chain.

# Set 1 — method: universal PBM; molecule type: double-stranded DNA, one strand shown; medium: in vitro; concentration: not given; reading: higher = stronger binding
# Target: Sal-like protein 4, full length isoform B (SALL4, Homo sapiens, UniProt Q9UJQ4-2, residues 1-616)
# Notes: 8-mer, flanks averaged, mean of replicates
# Residues (chain): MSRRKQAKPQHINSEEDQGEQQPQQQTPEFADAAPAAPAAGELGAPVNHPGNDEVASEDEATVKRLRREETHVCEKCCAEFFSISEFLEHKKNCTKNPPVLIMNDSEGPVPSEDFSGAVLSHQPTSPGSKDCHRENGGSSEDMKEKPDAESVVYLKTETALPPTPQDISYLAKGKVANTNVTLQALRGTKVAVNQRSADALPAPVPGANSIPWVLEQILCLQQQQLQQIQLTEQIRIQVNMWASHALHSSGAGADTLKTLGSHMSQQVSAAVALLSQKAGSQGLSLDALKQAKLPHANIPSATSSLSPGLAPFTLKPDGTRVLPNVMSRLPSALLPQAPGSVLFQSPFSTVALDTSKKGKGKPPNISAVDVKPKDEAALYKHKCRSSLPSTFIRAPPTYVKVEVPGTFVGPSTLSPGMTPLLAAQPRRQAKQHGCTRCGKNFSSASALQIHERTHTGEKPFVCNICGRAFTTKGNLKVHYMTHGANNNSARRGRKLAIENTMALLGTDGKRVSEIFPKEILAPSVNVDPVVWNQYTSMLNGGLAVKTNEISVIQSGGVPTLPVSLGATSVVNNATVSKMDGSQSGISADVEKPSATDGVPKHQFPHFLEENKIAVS
Sequence,E-score
ACATTCCT,0.064
ACCTGGCA,-0.0869
GAGAACAA,0.104
CAGCTTCG,-0.185
ATGACTCA,0.0831
GCACCCAC,-0.277
CAATGTTC,-0.0452
ACGTGCAA,-0.0141

# Set 2 — target: CCNB3, cyclin fold, Cln2 fusion (human); method: yeast growth competition, sequencing; medium: yeast; notes: weak parent motif; relative to: not given; reading: higher = stronger binding
# Starting sequence: RB1 docking peptide (human); PKPLKKLRFDIEG; partner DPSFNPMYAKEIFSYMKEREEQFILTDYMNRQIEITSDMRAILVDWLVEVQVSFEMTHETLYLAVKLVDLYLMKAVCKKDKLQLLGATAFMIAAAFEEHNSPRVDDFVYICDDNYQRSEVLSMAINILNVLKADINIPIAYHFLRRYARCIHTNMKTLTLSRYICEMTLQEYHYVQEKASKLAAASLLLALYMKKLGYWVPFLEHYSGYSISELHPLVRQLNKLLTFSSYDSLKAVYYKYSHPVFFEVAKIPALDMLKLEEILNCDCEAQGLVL
Substitution,normalised enrichment score
P3M,0.213
G13C,0.279
R8E,0.079
D10A,0.264
E12K,-0.492
G13N,-0.000252
K2L,0.376
R8Y,0.17
I11E,0.335
L7H,0.0458

# Set 3 — method: DHFR PCA, deep sequencing; medium: yeast; with: (+)-ABA 1.4 µM; relative to: wild-type fitted maximum; reading: higher = stronger binding
# Target: ABI1, truncated, D143A, DHFR fusion (Arabidopsis thaliana)
# Notes: methotrexate growth selection, single substitutions
# Starting sequence: PYL1, truncated, DHFR fusion (Arabidopsis thaliana); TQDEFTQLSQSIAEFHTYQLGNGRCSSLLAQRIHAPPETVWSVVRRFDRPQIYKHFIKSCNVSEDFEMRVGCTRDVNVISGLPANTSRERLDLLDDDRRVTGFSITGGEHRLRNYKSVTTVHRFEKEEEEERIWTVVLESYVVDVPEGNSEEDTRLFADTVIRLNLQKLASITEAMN
Substitution,relative binding score
Q7G,55.4%
R155E,-11%
T101R,-4.74%
T160P,-0.874%
R163W,-6.34%
S26V,4%
Q51G,2%

# Further values, each from its own experiment
Substance,target,test,test system,setting,how to read,endpoint,value
"PhoQ, residues 284 288 289 292 302 303 SCKMEA","PhoP, residues 12 14 15 18 19 NHFRA (Escherichia coli, UniProt P23836)","Sort-seq, measured: YFP reporter",E. coli,"PhoQ-PhoP variant library, with: 10 µM Mg2+","relative to: high Mg2+ state, higher = stronger signaling",fold induction,2.75

# Repeated from above (set 2):
Substitution,normalised enrichment score
R8Y,0.17
